Published values pooled from the literature.
Target: Cyclin-dependent kinase-like 1 (CDKL1, Homo sapiens, UniProt Q00532)

| Structure (SMILES) | assay | conditions | how to read | measurement | value |
| --- | --- | --- | --- | --- | --- |
| COc1c(Cl)cccc1Nc1c(-c2ccncc2C#C[C@@]2(C)CCCN2C(=O)/C=C/CN(C)C)[nH]c2c1C(=O)NCC2 | binding, competition with immobilised ligand | 3 µM | – | remaining binding | 82% |
| C=CC(=O)N1CCCC(n2c(=O)c3ncccc3n(Cc3ccc(Oc4ccccc4)cc3)c2=O)C1 (stereo not drawn) | cell-free assay, competition with immobilised ligand | 1 µM | – | remaining binding | 89% |
| CNC(=O)C[C@H](Cc1ccc(C#N)cc1)NC(=O)c1cc(-c2ccc(CN[C@H](C)c3ccc(C)cc3)o2)ccc1Cl | enzyme activity, inhibitor | 1 µM | – | activity vs control | 103% |
| C=CC(=O)N1CCc2ccc(-n3c(=O)ccc4cnc5ccc(-c6cnn(C)c6)cc5c43)cc21 | KINOMEscan | 1 µM | relative to: DMSO control | remaining binding | 68% |
| O=C(Cc1ccc(OCc2ccccc2)cc1)NC1(C(=O)O)CCN(C(=O)c2ccc(-c3cccc(Cl)c3)cc2)CC1 | enzyme activity, inhibitor | 10 µM | – | activity vs control | 94% |
| Cc1ccc(-c2c(/C=C(\C#N)C(=O)NC(C)C)n(CCCO)c3ncnc(N)c23)cc1 | cell-free assay, competition with immobilised ligand | 1 µM | – | remaining binding | 100% |
| CN1CC[C@@H](COc2cnc(C#N)cc2-c2ccn3nc(NC(=O)C4CC4)cc3c2)C1 | enzyme activity, inhibitor | 1 µM | – | inhibition | 19% |
| CNC(=O)C1CCN(c2cc(C)c(F)cc2NC(=O)c2ccc(-c3cc(O)ccc3C)c(C)c2)CC1 | binding, competition with immobilised ligand | 1 µM | – | remaining binding | 72% |
| COc1cc(Nc2nccc(-c3cnn4nc(OC)ccc34)n2)cc(C(F)(F)F)c1 | binding, competition with immobilised ligand | 1 µM | – | remaining binding | 71% |
| CC(C)=CC1OC(C)(C)C2C=C3C(=O)C(Cl)=CC(O)C3C3C(O)C4OC4C(=O)C132 (stereo not drawn) | cell-free assay, competition with immobilised ligand | 10 µM | – | remaining binding | 70% |
| O=C(NCC1CCOCC1)c1n[nH]cc1NC(=O)c1c(F)cccc1F | scanMAX | 1 µM | relative to: control | remaining binding | 93% |
| CNC1C[S+]2CC[S+]3CC[S+](C1)[Ru-4]321([N]=C=S)[n]2c3ccc(OC)cc3c3c4c(c5cc(F)c[n+]1c5c32)C(=O)NC4=O (stereo not drawn) | KinomeScan | 0.1 µM | relative to: untreated | remaining binding | 100% |
| Nc1ncc2c(n1)-c1c([nH]c3ccc(C4=CCOCC4)cc13)CCC2 | binding, competition with immobilised ligand | 1 µM | – | remaining binding | 98% |
| Cc1cnc2nc1Nc1cccc(c1)COC/C=C/COCc1cc(ccc1OCCN1CCOCC1)N2 | binding | 0.1 µM | – | remaining binding | 89% |
| CCN1CCN(Cc2ccc(C(=O)Nc3ccc(C)c(NCc4cnc5[nH]ccc5c4OC)c3)cc2C(F)(F)F)CC1 | binding, competition with immobilised ligand | 1 µM | – | remaining binding | 72% |

Some of these lines once more:
| Structure (SMILES) | assay | conditions | how to read | measurement | value |
| --- | --- | --- | --- | --- | --- |
| CNC(=O)C[C@H](Cc1ccc(C#N)cc1)NC(=O)c1cc(-c2ccc(CN[C@H](C)c3ccc(C)cc3)o2)ccc1Cl | enzyme activity, inhibitor | 1 µM | – | activity vs control | 103% |
| O=C(NCC1CCOCC1)c1n[nH]cc1NC(=O)c1c(F)cccc1F | scanMAX | 1 µM | relative to: control | remaining binding | 93% |
